{"data": "Assay results of several laboratories", "note": "± gives the spread as reported."}
{"SMILES": "CO[C@H]1CC[C@H](N2C(=O)CNc3ncc(-c4ccc(C(C)(C)O)nc4)nc32)CC1", "test system": "patients, plasma", "setting": "60 mg, day -1, geometric mean", "quantity": "CL/F", "value": "28.9 L/h"}
{"SMILES": "O=C(Nc1cnccc1Cl)N1CCN(Cc2ccc3c(c2)OC(F)(F)O3)CC1", "test system": "healthy young men, plasma", "setting": "oral, 25 mg once daily, day 10", "quantity": "CL/F", "value": "12.5 L/h"}
{"SMILES": "C[C@@H](N)C1CCN(S(=O)(=O)c2cccc3cnccc23)CC1", "test system": "healthy volunteers, fasted, plasma", "setting": "oral, 150 mg", "quantity": "CL/F", "value": "4820 L/h"}
{"SMILES": "OC[C@H]1O[C@@H](c2ccc(F)c(Cc3cc4ccccc4s3)c2)[C@H](O)[C@@H](O)[C@@H]1O", "test system": "Japanese type 2 diabetes patients", "setting": "oral, 50 mg/day, day 14", "quantity": "CL/F", "value": "8.96 ± 1.88 L/h"}
{"SMILES": "O=C(c1cccnc1-c1ccncc1)N1CCC(O)(Cc2ccccc2)CC1", "test system": "healthy Japanese adults, plasma", "setting": "600 mg single dose", "quantity": "CL/F", "value": "178 L/h"}
{"SMILES": "CCCCCCCCCCCCCCCC(=O)N[C@@H](CCC(=O)NCCCC[C@@H]1NC(=O)[C@H]([C@@H](C)CC)NC(=O)[C@@H](NC(=O)[C@@H]2CCCN2C(=O)[C@H](Cc2ccccc2)NC(=O)[C@H](Cc2c[nH]cn2)NC(=O)[C@@H](NC(=O)[C@H](CC(=O)O)NC(=O)CC(C)C)[C@@H](C)O)CSSC[C@@H](C(=O)N[C@@H](CCCCN)C(N)=O)NC(=O)CNC(=O)[C@H](CCCCN)NC(=O)[C@H](CO)NC(=O)[C@H](CCCNC(=N)N)NC(=O)[C@@H]2CCCN2C(=O)[C@H](CCC(=O)O)NC(=O)[C@H](Cc2ccccc2)NC1=O)C(=O)O", "test system": "healthy volunteers, plasma", "setting": "subcutaneous, 10 mg single, lyophilised formulation", "quantity": "CL/F", "value": "0.629 ± 0.123 L/h"}
{"SMILES": "CC[C@@H]1CN(C(=O)NCC(F)(F)F)C[C@@H]1c1cnc2cnc3[nH]ccc3n12", "assay": "population PK model", "test system": "healthy, RA and CD subjects, plasma", "setting": "oral, immediate-release formulation", "scale": "baseline: RA patients over non-RA subjects", "quantity": "CL/F ratio", "value": 0.779}
{"SMILES": "N#CC[C@H](C1CCCC1)n1cc(-c2ncnc3[nH]ccc23)cn1", "test system": "children over 12 years, plasma", "setting": "oral, BSA-corrected", "quantity": "CL/F", "value": "10.2 ± 3.1 L/h/m²"}
{"note": "For quick reference, copied from above:"}
{"SMILES": "C[C@@H](N)C1CCN(S(=O)(=O)c2cccc3cnccc23)CC1", "test system": "healthy volunteers, fasted, plasma", "setting": "oral, 150 mg", "quantity": "CL/F", "value": "4820 L/h"}
